# Published values gathered from unrelated publications.
# Each line is one published result; not all experiments were run side by side. “And” joins repeats or separate records; there may be more than shown. Numbers after ± are the reported error.
SMILES,assay,system,setting,scale,quantity,result
COC1OC(C)C(OC2OC(C)C(OS(=O)(=O)O)C(OC3OC(C)C(OC4OC(C)C(OS(=O)(=O)O)C(OC5OC(C)C(OC6OC(C)C(OS(=O)(=O)O)C(OC7OC(C)C(OC8OC(C)C(OS(=O)(=O)O)C(OS(=O)(=O)O)C8O)C(OS(=O)(=O)O)C7O)C6O)C(OS(=O)(=O)O)C5O)C4O)C(OS(=O)(=O)O)C3O)C2O)C(OS(=O)(=O)O)C1O (stereo not drawn),,human plasma,128 µg/mL,baseline: control,APTT prolongation,1.3 fold
CC(C)NCC(SS(=O)(=O)O)c1ccccc1 (stereo not drawn),,"Swiss Webster mice, Schistosoma mansoni infected",100 mg/kg,baseline: vehicle control,spleen weight decrease,35%
O=Cc1cc(C(F)(F)F)cc(C(F)(F)F)c1,HPLC-MS,,"pH 10.2, added: 50 mM N-α-acetyl-lysine",,pseudo-first-order rate constant,0 h⁻¹
Cc1cc2cc(C(=O)N(Cc3ccc(C(F)(F)F)cn3)[C@H](C)c3ncccn3)ccc2nc1N,"ELISA, refers to: SDMA","mouse, HCT-116 MTAP-deleted xenograft, tumour","oral, 100 mg/kg once daily, 14 doses, 4 h after last dose",baseline: vehicle,inhibition,88%
COC1OC(C)C(OS(=O)(=O)O)C(OC2OC(C)C(OS(=O)(=O)O)C(OC3OC(C)C(OS(=O)(=O)O)C(OC4OC(C)C(OS(=O)(=O)O)C(OC5OC(C)C(OS(=O)(=O)O)C(OS(=O)(=O)O)C5O)C4O)C3O)C2O)C1O (stereo not drawn),,human plasma,128 µg/mL,baseline: control,APTT prolongation,1.3 fold
COC1CN([C@H]2CC[C@H]([C@@]3(C)Oc4c(Cl)cc(C(=O)NCc5c(SC)cc(C)[nH]c5=O)c(C)c4O3)CC2)C1,"RNA-seq, refers to: CREG2","human, whole blood","dose not given, 24 h",baseline: pretreatment baseline,log2 fold change,3.13
Nc1nc2cnc(C(=O)N3CCOC[C@@H]3c3ccc(C(F)(F)F)cc3)cc2c2c1COC2,"ELISA, refers to: SDMA","mouse, HCT-116 MTAP wild type xenograft, tumour","oral, 10 mg/kg once daily",baseline: vehicle,inhibition,27%
COc1cc2c(NC3CCN(C(C)C)CC3)cc(N3CCOCC3)nc2cc1OCCCN1CCCC1,"TMT proteomics, refers to: MFGE8","5xFAD mouse, hippocampus",dose not given,baseline: wild type,log2 fold change,0.0848
CC(=O)[O-].O.O.[O-]c1ccc(Br)cc1C=NCCN1CCOCC1.[Zn+2],superoxide scavenging,,160 µM,,inhibition,31.8%
Cc1cnc2nc1Nc1cccc(c1)COC/C=C/COCc1cc(ccc1OCCN1CCOCC1)N2,,BALB/c mice rhEPO-induced polycythemia,75 mg/kg,,spleen weight,0.165 g and 0.164 g and 0.139 g and 0.135 g and 0.166 g and 0.19 g
O=C(N[C@@H](Cc1ccc(OCCCCC2CCNCC2)cc1)C(=O)O)c1nc2ccccc2o1.O=C(O)C(F)(F)F,,"human, platelet-rich plasma","100 µM, added: thrombin",,clot retraction velocity,0.00432 min⁻¹ and 0.00492 min⁻¹ and 0.0024 min⁻¹
COc1ccc(C(=O)CCc2cc(C(CCc3ccc(O)cc3OC)c3ccc(O)cc3)c(O)cc2OC)cc1 (racemic),,human blood,"10 µM, added: A23187",,arachidonic acid level,102000 ± 15400 pg/mL
Oc1cc2c(cc1O)C(c1ccc3[nH]ccc3c1)NCC2 (stereo not drawn),ferrozine,cell-free,"100 µM, DMSO solvent",,Fe2+ chelation,92 ± 1.17%
N[C@@H](CNC(=O)N[C@@H](CS)C(=O)NCC(=O)O)C(=O)O,,"mouse C57BL/6, Aβ i.c.v. model, hippocampus","intranasal, dose not given",,GFAP immunoreactivity,9.2 ± 1.1 % area
CC(CCC(=O)NCc1ccc(C(=O)NO)cc1)C1CCC2C3C(O)CC4CC(O)CCC4(C)C3CCC12C (stereo not drawn),refers to: UDCA,"PCK rat (Pkhd1 mutant), peripheral blood","oral gavage, dose not given, 5 months",baseline: total bile acids,relative abundance,1.77%
COc1cc(O)ccc1CCC(c1ccc(O)cc1)c1cc2c(c(C)c1O)OC(c1ccc(O)cc1)CC2 (mixture of isomers),refers to: RvE3,human whole blood,"0.3 µM, added: Escherichia coli",,amount,38 pg/mL blood
CCCCCc1ccc(S(=O)(=O)N2CC2C(=O)OC)cc1 (stereo not drawn),,"mouse, Lewis lung carcinoma","intraperitoneal, 5 mg/kg, 16 doses, day 13",,tumour volume,335 mm3
COc1ccc(S(=O)(=O)N2CCc3ccccc3C2)cc1N1CCN(C(=O)c2ccc(F)cc2C(F)(F)F)CC1,"stereology, optical fractionator, refers to: tyrosine hydroxylase","rat, 6-OHDA lesion model, substantia nigra pars compacta",0.3 µg/24 h,baseline: lesioned over intact side,TH-immunoreactive cell ratio,15.1 ± 3.2%
COc1ccc(C([O-])=CC(=O)c2ccc(C(C)(C)C)cc2)cc1.[Ru+2].c1ccc(-c2ccnc3c2ccc2c(-c4ccccc4)ccnc23)cc1.c1ccc(-c2ccnc3c2ccc2c(-c4ccccc4)ccnc23)cc1,gel electrophoresis,pUC19 plasmid DNA,no light,baseline: no compound,relaxed circular DNA increase,67%
CN1CCC[C@]1(C)/C=C/S(=O)(=O)NC(=O)Nc1c2c(cc3c1CCC3)CCC2,,"human, whole blood ex vivo","12.5 mg twice daily, day 14, 3 h, multiple ascending dose, added: LPS and ATP",,IL-1β inhibition,97.3%
Oc1cc2c(cc1O)C(c1ccccc1)NCC2 (stereo not drawn),ferrozine,cell-free,"100 µM, DMSO solvent",,Fe2+ chelation,91.24 ± 0.81%
COc1cnc2cccc(N3CCc4c(cc(Cn5ccnc5)cc4-c4cn(C)nc4C(F)(F)F)C3=O)c2c1,,"BALB/c nude mice, MV4-11 xenograft","intraperitoneal, 100 mg/kg, day 21",,tumour volume,160 mm3 and 98 mm3 and 89 mm3 and 125 mm3 and 105 mm3
COC1OC(C)C(OS(=O)(=O)O)C(OC2OC(C)C(OS(=O)(=O)O)C(OS(=O)(=O)O)C2O)C1O (stereo not drawn),,human plasma,128 µg/mL,baseline: control,APTT prolongation,1.2 fold
S=C(S)OC1CC2CC1C1CCCC21 (stereo not drawn),"LC-MS/MS, refers to: extracellular Leu-enkephalin",mouse striatal brain slices,"500 µM, 20 min, added: 50 mM KCl",,Leu-enkephalin concentration,83.6 pM and 2300 pM and 1280 pM and 585 pM and 1360 pM and 1150 pM and 2260 pM and 286 pM
COC1OC(C)C(O)C(OC2OC(C)C(O)C(OC3OC(C)C(O)C(OC4OC(C)C(O)C(OC5OC(C)C(O)C(OS(=O)(=O)O)C5OS(=O)(=O)O)C4OS(=O)(=O)O)C3OS(=O)(=O)O)C2OS(=O)(=O)O)C1OS(=O)(=O)O (stereo not drawn),,human plasma,128 µg/mL,baseline: control,APTT prolongation,1.1 fold
CCC(=O)N[C@@H](C)C(=O)OCC(=O)N[C@@H](C)C(=O)O,,water,"pH 3, 25 °C",,chain scission rate constant,0.0003 h⁻¹
COC1OC(C)C(OC2OC(C)C(OS(=O)(=O)O)C(OC3OC(C)C(OC4OC(C)C(OS(=O)(=O)O)C(OC5OC(C)C(OC6OC(C)C(OS(=O)(=O)O)C(OS(=O)(=O)O)C6O)C(OS(=O)(=O)O)C5O)C4O)C(OS(=O)(=O)O)C3O)C2O)C(OS(=O)(=O)O)C1O (stereo not drawn),,human plasma,128 µg/mL,baseline: control,APTT prolongation,1.2 fold
COCCOCCOCCNC(=O)Cc1cc(CC(=O)N[C@H]2C[C@H]3C(=O)Nc4cc(OCCOCCOCCOC)cc(n4)C(=O)N4CCC[C@H]4C(=O)Nc4cc(OCCOCCOCCOC)cc(n4)C(=O)N4CCC[C@H]4C(=O)Nc4cc(OCCOCCOCCOC)cc(n4)C(=O)N3C2)cc(CC(=O)N[C@H]2C[C@H]3C(=O)Nc4cc(OCCOCCOCCOC)cc(n4)C(=O)N4CCC[C@H]4C(=O)Nc4cc(OCCOCCOCCOC)cc(n4)C(=O)N4CCC[C@H]4C(=O)Nc4cc(OCCOCCOCCOC)cc(n4)C(=O)N3C2)c1,"anion binding, ITC",water/methanol 70 vol% (84.0 mol%),"298 K, added: sodium sulfate",,ΔG,-6.597 ± 0.0239 kcal/mol
CN1CCC(N[C@@H]2CCc3[nH]c4c(C(N)=O)ccc(-c5ccccc5Cl)c4c3C2)CC1,"organoid viability, CellTiter-Glo 3D","sample B colorectal cancer organoid, human",6 days,,IC50,3.34 nM
COC1OC(C)C(OC2OC(C)C(OS(=O)(=O)O)C(OC3OC(C)C(OS(=O)(=O)O)C(OS(=O)(=O)O)C3OS(=O)(=O)O)C2OS(=O)(=O)O)C(OS(=O)(=O)O)C1OS(=O)(=O)O (stereo not drawn),,human plasma,128 µg/mL,baseline: control,APTT prolongation,1.8 fold
